Assay results gathered from unrelated publications.
Lines come from different studies, so protocols differ. ± gives the spread as reported.

COc1cc2ccnc(Cc3ccc(O[11CH3])c(OC)c3)c2cc1OC
kidney radioactivity (Sprague-Dawley rat; intravenous, dose not given, 30 min; reference: 5 min value): 42%

C[C@@H](O)[C@H](NC(=O)[C@H](CCCCN)NC(=O)COCCN)C(=O)N[C@@H](CCCNC(=N)N)C(=O)NC(C)(C)C(=O)N[C@@H](CCCNC(=N)N)C(=O)NC(C)(C)C(=O)N[C@H](C(=O)N[C@@H](CO)C(=O)N[C@@H](Cc1c[nH]cn1)C(=O)N[C@@H](Cc1ccc(O)cc1)C(=O)NCC(=O)O)[C@@H](C)O
mean corpuscular haemoglobin (C57BL/6 mouse, blood; intravenous, 50 mg/kg, 10 h): 11.1 to 12.7 pg

CC(C)[C@H](NC(=O)CNC(=O)[C@H](CCC(N)=O)NC(=O)[C@H](C)N)C(=O)O
subjects with Definitely related AE (healthy male volunteers; intravenous, 90 mg/kg/h, 2 h, with: LPS 2 ng/kg): 0%

CC(C)[C@H](NC(=O)CNC(=O)[C@H](CCC(N)=O)NC(=O)[C@H](C)N)C(=O)O
subjects with adverse events (Possibly drug-related; human; 30 mg/kg, 3 days, thrice daily dosing): 0%

CC[C@H](C)[C@H](NC(=O)[C@H](C)NC(=O)[C@H](C)NC(=O)[C@H](CCC(N)=O)NC(=O)CNC(=O)[C@H](CC(C)C)NC(=O)[C@H](Cc1c[nH]cn1)NC(=O)[C@H](CCCCN)NC(=O)[C@H](C)NC(=O)CNC(=O)[C@H](CCCCN)NC(=O)[C@H](CCCNC(=N)N)NC(=O)[C@H](CC(C)C)NC(=O)[C@H](Cc1c[nH]c2ccccc12)NC(=O)[C@H](CCCCN)NC(=O)[C@H](CCCCN)NC(=O)[C@H](Cc1c[nH]c2ccccc12)NC(=O)CN)C(=O)N[C@@H](CCCCN)C(=O)NCC(=O)N[C@@H](CC(C)C)C(=O)N[C@@H](C)C(=O)N[C@@H](CO)C(=O)O
acute toxic concentration (zebrafish embryos; 1 h, 4, 28, 52 hpf): 5 µg/mL

COc1ccnc(-c2cc(OC)ccn2)c1.O.[C-]#[O+].[C-]#[O+].[C-]#[O+].[Re+]
capacity factor (RP-HPLC C18 column, measured: aqua complex; MeCN:water 40:60, 0.1% TFA; isocratic elution): 3.6

CC1N=C(c2ccccc2F)c2cc(Br)ccc2-n2cnc(C(=O)OC3OC(CO)C(O)C(O)C3O)c21 (stereo not shown)
excretion in urine and feces (Swiss Webster mouse; oral, 750 µg of parent drug, 0 to 48 h; reference: dose): 2.8 ± 0.5%

CC[C@H](C)[C@H](NC(=O)[C@H](CCCCN)NC(=O)CNC(=O)[C@@H](NC(=O)[C@@H](NC(=O)[C@H](CC(N)=O)NC(=O)[C@H](CC(=O)O)NC(=O)[C@@H](N)CC(=O)O)C(C)C)[C@@H](C)CC)C(=O)N[C@@H](Cc1c[nH]c2ccccc12)C(=O)N[C@@H](CO)C(=O)N[C@@H](CCCCN)C(=O)N[C@@H](CC(C)C)C(=O)N[C@H](C(=O)N[C@H](C(=O)N[C@H](C(=O)N[C@H](C(=O)N[C@H](C(=O)N[C@@H](CCCCN)C(=O)N[C@H](C(=O)N[C@@H](Cc1ccccc1)C(=O)N[C@H](C(=O)N[C@@H](CCCCN)C(=O)O)[C@@H](C)O)[C@@H](C)CC)[C@@H](C)O)[C@@H](C)CC)C(C)C)[C@@H](C)O)[C@@H](C)CC
fractional helicity (circular dichroism; POPC vesicles; pH 7.5): 0.61

COc1ccc(F)cc1S(=O)(=O)Nc1cnc2c(c1)C(=O)NCCO2
half-life (male C57BL/6 mouse, plasma; oral, 1 mg/kg, single dose): 1.1 h

CC[C@H](C)C(=O)N1CCC(NC(=O)Nc2ccc(OC(F)(F)F)c(F)c2)CC1
subjects with trichomoniasis TEAE (healthy volunteers; oral, 16 mg single dose): 0%
